Experimental data gathered from unrelated publications.
A part holds a random share of what one study measured. Positions count from the first letter of the parent shown.

Sample 1 — technique: RNA Bind-n-Seq; form: RNA; sample: in vitro; tested at: not given; notes: RNA with constant flanks, ends assumed; reference: input RNA pool; reading: higher = stronger binding
Target: RING finger protein unkempt homolog, zinc fingers 1-6, GST-SBP tag (UNK, Homo sapiens, UniProt Q9C0B0, residues 30-357)
UniProt Q9C0B0, sequence (30-357, looked up): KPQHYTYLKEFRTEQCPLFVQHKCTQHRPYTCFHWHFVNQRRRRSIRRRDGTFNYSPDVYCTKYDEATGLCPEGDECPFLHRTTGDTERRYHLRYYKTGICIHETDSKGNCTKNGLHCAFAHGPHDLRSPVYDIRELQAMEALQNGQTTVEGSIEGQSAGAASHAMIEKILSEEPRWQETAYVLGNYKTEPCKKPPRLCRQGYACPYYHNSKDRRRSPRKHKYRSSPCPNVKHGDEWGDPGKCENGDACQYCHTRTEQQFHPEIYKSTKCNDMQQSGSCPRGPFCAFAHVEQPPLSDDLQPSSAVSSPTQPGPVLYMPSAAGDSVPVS
Constant ends, left off below: GGGAGUUCUACAGUCCGACGAUC … CAACAGAGGAUUGAGCAUCA
With `AAGAUUGGGCUUAUUCAGUUUUGCUUAUCUGCUCCUAAAACAGAUAUGGAUAAUCAAACCGCCGUAUCUGACUAUGCCCAGAUGGAUCGAGUGCUUCGAGAGGAGAGAGCCUAUAUUUUA` the bound/input enrichment was 0.206 ratio.
For `AUCAUUGAAGCAUUCUAUGGAGGCUCCCAUAAACAGCUGGUGGAUCUUCUUCAAGAAGAGUCCGGAGACUGUGUCGUUUAUACCCUUCCUGCAAAGAAAUGGCAUUGGAGAGCCCGGACA`, the bound/input enrichment was 0.127 ratio.
For `CAGCUGCUUACACAAGAUGUAGAAAAAUUUUGUAACAGUGUAGUCGAUCUGUAUUCAAAUCUCCGUAAGCCAUUUUUAGACAUAGUUUUGUAUAUCUUUAAGUUAACGAGUGCAAUUGGA`, the bound/input enrichment was 8.05 ratio.
For `GCAGAAGGAACUUUGGGGUGCAGCCAGGACCCGGUAGGCCUGAGCCUCAACUCUUCAGAAAACCGUGUUUUUAAUAUUCCUCUUCAGAAAAUAGUGUUUUUAAUAUUCCGAGCUAGAGCU`, the bound/input enrichment was 10.2 ratio.
With `CAACCUCAGAGCCCUGACUUCCUGGACAUCACCAACCCCAAAGCCGUAUUAGAAAACGCACUCCGGAACUUUGCCUGUCUGACCACCGGGGAUGUGAUUGCCAUCAACUAUAAUGAAAAG` the bound/input enrichment was 0.698 ratio.
`UUAAUGUUUUCGAACUGCUUUGAAUACAACCCUCGUAACACAAGUGAAGCAAAAGCUGGAACCCGGCUUCAAGCAUUUUUUCAUAUUCAGGCUCAAAAGCUUGGACUCCACGUCACACCC` gave a bound/input enrichment of 0.201 ratio.

Sample 2 — technique: DHFR PCA, deep sequencing; sample: yeast; with: (+)-ABA 1.4 µM; reference: wild-type fitted maximum; reading: higher = stronger binding
Target: ABI1, truncated, D143A, DHFR fusion (Arabidopsis thaliana)
Notes: methotrexate growth selection, single substitutions
Starting sequence: PYL1, truncated, DHFR fusion (Arabidopsis thaliana); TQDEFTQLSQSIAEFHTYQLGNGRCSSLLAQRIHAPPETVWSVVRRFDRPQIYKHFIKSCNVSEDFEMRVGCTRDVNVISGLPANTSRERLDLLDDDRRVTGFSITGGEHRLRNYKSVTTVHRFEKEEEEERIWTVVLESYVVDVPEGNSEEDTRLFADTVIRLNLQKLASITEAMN
Under “relative binding score”, `S9C` is recorded as 39.7%.
For `H16L`, “relative binding score” read 2.75%.
For `Q19G`, “relative binding score” read 34.7%.
For `K168V`, “relative binding score” read 14.6%.
`I57K`: “relative binding score” -3.35%.
For `E64W`, “relative binding score” read 21.3%.
Under “relative binding score”, `T1P` is recorded as 53.9%.

Sample 3 — organism: Saccharomyces cerevisiae; observed: binding; technique: competitive growth deep sequencing; form: peptide; strain: cyclin E1-Cln2 fusion strain; tested at: concentration not given; notes: peptide tiling library; reading: direction not given
Under “growth enrichment score”, `SGYLTDENEVGFRG` is recorded as 0.557.
Under “growth enrichment score”, `PQWPCGKHKRVLIFAS` is recorded as 0.283.
For `LENIEPLQVSFAVLSS`, “growth enrichment score” read 0.273.
For `GAEELEDLVHFSVSEL`, “growth enrichment score” read 0.944.
Under “growth enrichment score”, `TSPGPVLLHPSPSTTQ` is recorded as 0.47.
For `VRDLSYRLVFLACCVA`, “growth enrichment score” read -0.613.
`NNIRKALSFDNRGEEH` — result for “growth enrichment score”: -1.05.
Under “growth enrichment score”, `QNPCGSKACRRLFGPV` is recorded as 1.88.
For `RNRGPKLNAMLRLGVL`, “growth enrichment score” read -0.617.

Single results of other studies
`PhoQ, residues 284 288 289 292 302 303 QWQEDG` gave a fold induction of 0.518 (PhoP, residues 12 14 15 18 19 SMASL (Escherichia coli, UniProt P23836); Sort-seq, measured: YFP reporter; E. coli; PhoQ-PhoP variant library, with: 10 µM Mg2+; reference: high Mg2+ state, higher = stronger signaling).

Repeated from above (sample 3):
Under “growth enrichment score”, `TSPGPVLLHPSPSTTQ` is recorded as 0.47.
